Assay results pooled from the literature.
A part holds a random share of what one study measured.
Sequence of UniProt O75582 (whole entry, looked up): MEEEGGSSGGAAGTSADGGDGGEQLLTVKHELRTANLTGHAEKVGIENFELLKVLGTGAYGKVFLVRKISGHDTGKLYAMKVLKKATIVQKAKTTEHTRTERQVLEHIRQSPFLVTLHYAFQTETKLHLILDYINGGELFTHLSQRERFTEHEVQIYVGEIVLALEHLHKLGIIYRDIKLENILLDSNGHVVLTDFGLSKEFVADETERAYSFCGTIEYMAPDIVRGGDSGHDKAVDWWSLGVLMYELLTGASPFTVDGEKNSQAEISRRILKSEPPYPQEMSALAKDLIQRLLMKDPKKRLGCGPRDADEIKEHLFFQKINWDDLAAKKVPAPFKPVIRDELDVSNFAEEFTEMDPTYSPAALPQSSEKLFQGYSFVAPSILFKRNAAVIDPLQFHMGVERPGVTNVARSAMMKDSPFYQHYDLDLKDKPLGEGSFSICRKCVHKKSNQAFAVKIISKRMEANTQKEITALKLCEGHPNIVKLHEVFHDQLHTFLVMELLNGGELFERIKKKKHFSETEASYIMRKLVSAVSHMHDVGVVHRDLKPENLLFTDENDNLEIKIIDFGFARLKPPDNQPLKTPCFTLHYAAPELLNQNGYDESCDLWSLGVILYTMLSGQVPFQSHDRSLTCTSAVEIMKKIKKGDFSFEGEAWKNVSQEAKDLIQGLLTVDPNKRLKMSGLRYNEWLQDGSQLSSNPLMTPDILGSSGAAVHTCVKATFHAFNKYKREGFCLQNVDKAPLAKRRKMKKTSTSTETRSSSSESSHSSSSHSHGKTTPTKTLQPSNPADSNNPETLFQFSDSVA
Sequence of UniProt O00506 (whole entry, looked up): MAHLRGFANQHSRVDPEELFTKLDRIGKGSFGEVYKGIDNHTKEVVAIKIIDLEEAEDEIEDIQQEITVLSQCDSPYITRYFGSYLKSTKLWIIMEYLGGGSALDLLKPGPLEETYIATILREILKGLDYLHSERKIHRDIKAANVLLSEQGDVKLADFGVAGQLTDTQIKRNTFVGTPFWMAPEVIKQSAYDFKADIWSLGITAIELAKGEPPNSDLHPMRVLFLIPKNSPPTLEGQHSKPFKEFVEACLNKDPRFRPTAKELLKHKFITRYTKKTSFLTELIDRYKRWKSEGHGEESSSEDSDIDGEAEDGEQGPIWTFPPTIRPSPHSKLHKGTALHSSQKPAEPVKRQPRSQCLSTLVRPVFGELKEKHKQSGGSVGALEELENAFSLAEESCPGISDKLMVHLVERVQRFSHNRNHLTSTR
Sequence of UniProt Q04771 (whole entry, looked up): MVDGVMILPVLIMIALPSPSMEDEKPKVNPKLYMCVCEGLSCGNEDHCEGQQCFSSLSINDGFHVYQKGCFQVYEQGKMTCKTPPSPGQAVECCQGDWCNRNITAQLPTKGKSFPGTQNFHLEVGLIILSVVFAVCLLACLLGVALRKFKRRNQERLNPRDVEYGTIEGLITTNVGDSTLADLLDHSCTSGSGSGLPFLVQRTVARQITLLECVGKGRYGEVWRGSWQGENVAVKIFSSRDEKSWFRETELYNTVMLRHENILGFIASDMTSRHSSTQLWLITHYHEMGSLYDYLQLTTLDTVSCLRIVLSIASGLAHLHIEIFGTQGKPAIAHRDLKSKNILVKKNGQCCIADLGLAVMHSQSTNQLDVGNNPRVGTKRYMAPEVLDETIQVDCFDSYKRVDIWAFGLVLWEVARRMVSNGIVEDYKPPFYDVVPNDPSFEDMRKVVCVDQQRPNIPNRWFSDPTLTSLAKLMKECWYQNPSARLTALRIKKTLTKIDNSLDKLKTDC
Sequence of UniProt Q02779 (whole entry, looked up): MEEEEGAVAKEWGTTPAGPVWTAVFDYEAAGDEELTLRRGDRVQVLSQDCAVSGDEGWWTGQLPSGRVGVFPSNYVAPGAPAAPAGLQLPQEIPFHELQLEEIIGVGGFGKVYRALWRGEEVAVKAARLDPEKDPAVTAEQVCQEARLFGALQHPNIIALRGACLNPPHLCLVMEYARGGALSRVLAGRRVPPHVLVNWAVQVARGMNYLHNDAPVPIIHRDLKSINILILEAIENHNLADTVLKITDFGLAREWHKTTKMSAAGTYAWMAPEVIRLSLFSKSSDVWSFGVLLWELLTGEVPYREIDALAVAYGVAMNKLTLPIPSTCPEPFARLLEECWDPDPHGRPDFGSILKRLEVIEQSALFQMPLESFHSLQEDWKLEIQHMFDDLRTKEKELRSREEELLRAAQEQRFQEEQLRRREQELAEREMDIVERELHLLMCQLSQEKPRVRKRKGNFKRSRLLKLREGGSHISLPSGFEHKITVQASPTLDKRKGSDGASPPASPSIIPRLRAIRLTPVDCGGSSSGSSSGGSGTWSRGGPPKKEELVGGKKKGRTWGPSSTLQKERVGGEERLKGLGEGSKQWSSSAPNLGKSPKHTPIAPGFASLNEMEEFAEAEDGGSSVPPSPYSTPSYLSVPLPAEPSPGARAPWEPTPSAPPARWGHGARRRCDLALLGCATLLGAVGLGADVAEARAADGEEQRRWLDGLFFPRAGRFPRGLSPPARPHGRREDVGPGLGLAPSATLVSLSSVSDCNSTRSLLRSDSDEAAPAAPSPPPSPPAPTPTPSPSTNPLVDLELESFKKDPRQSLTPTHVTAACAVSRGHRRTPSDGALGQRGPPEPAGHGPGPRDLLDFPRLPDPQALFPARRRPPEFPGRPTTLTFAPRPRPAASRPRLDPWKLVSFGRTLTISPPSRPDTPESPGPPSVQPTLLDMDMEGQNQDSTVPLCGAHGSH

Block 1
Target: Myosin light chain kinase, smooth muscle (MYLK, Homo sapiens, UniProt Q15746)
Sequence of UniProt Q15746 (whole entry, looked up): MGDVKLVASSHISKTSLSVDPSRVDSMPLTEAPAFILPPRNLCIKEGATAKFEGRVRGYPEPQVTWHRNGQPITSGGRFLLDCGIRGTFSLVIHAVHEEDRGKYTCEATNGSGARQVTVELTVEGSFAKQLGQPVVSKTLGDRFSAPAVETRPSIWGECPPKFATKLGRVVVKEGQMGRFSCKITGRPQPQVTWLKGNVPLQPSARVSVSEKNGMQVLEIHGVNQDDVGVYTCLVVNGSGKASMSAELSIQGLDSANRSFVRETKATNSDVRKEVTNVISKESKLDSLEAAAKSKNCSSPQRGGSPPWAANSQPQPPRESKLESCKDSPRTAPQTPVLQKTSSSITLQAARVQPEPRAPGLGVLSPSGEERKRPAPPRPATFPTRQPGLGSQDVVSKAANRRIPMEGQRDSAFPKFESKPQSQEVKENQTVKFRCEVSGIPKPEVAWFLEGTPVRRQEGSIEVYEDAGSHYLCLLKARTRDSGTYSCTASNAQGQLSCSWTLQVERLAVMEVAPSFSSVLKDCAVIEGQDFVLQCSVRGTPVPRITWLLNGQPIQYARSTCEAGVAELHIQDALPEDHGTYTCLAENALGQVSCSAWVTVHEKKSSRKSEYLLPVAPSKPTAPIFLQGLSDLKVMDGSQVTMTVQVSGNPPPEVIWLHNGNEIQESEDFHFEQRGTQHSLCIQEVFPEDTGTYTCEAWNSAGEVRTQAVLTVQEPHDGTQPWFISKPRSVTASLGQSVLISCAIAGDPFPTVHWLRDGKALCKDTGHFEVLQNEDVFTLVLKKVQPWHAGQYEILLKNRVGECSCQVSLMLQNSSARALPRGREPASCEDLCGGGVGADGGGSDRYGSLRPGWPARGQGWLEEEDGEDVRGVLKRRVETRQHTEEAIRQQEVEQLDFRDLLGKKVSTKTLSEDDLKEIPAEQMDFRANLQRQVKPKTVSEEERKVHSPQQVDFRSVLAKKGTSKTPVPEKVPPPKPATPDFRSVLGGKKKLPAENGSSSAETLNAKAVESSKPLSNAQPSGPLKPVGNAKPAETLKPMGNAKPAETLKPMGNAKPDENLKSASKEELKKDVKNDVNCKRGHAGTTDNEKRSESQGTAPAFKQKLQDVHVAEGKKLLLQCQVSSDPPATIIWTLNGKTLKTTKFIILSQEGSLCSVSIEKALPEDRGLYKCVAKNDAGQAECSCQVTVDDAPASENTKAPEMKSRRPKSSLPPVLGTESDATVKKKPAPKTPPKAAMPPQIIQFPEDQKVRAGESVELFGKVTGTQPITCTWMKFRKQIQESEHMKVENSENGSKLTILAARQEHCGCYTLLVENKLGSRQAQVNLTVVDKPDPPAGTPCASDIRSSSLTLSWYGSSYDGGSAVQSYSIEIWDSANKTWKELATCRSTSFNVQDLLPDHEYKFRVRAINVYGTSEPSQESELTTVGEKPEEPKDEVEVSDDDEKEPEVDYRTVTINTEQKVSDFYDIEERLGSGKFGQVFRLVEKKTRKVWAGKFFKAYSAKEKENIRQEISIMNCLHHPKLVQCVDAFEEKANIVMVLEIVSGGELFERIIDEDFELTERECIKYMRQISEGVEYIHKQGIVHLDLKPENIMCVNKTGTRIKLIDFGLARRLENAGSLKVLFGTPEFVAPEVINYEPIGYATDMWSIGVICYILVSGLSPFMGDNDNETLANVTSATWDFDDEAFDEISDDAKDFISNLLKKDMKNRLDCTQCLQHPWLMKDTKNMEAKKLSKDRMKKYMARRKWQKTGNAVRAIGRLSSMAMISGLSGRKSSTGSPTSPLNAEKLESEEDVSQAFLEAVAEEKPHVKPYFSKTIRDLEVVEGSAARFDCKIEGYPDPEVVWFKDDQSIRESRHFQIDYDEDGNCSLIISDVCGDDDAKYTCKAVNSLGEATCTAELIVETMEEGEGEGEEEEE
Read-out: enzyme activity
Mode: inhibitor
Concentration: 0.5 µM
Relative to: control
Compound	remaining activity
N#CC(c1ccnc(NCCc2cccnc2)n1)c1nc2ccccc2s1 (centres unmarked)	97.9%
C[C@@H](N)[C@H]1CC[C@H](C(=O)Nc2ccncc2)CC1	97.4%
CCCCc1c(-c2ccc(O)cc2)[nH]c2nccnc12	101%
Nc1nc(Nc2ccc(S(N)(=O)=O)cc2)nn1C(=S)Nc1c(F)cccc1F	78.8%
O=C(O)/C=C/c1cc(Br)c(Br)c(Br)c1Br	83.3%
N#C/C(=C(/N)SC1C=CC=CC1)c1cccc(C(O)c2ccncc2)c1 (centres unmarked)	106%
O=C1c2ccccc2-c2nc3nnnn3nc21	94.1%
CCN(CC)CCCCN1c2ccccc2Oc2ccc(Cl)cc21	97%
CC(C)n1cnc2c(Nc3cccc(Cl)c3)nc(NCCO)nc21	87.8%
O=c1c(-c2ccc(F)cc2)c(-c2ccncc2)[nH]n1-c1ccc(Cl)cc1	101%
COc1cc2c(Nc3ccc(Br)cc3F)ncnc2cc1OCC1CCN(C)CC1	94.2%
CNc1cc2c(Nc3cccc(Br)c3)ncnc2cn1	79.5%
CC(C)(C)c1nc2c3cc[nH]c(=O)c3c3cc(F)ccc3c2[nH]1	9.03%
Clc1ccc(Nc2nnc(Cc3ccncc3)c3ccccc23)cc1	97.5%

Block 2
Cell line: Huh-7
Concentration: 10 µM
Time: 24 h
Compound	viability
CC(=O)OCC(CCn1cnc2cnc(N)nc21)COC(C)=O	88.2%
CN(C)[C@@H]1C(O)=C(C(N)=O)C(=O)[C@@]2(O)C(O)=C3C(=O)c4c(O)cccc4[C@@](C)(O)[C@H]3[C@H](O)[C@@H]12	91.2%
NC[C@H]1CC[C@H](C(=O)O)CC1	100%
CCCc1nc(C)c2c(=O)[nH]c(-c3cc(S(=O)(=O)N4CCN(CC)CC4)ccc3OCC)nn12	101%
CCCCc1nc(Cl)c(CO)n1Cc1ccc(-c2ccccc2-c2nn[nH]n2)cc1	97.8%
CC1(C)O[C@@H]2C[C@H]3[C@@H]4C[C@H](F)C5=CC(=O)C=C[C@]5(C)[C@@]4(F)[C@@H](O)C[C@]3(C)[C@]2(C(=O)CO)O1	98.2%
Nc1ccc(S(=O)(=O)Nc2ccccn2)cc1	102%
COc1ccc(C(=O)c2ccccc2O)c(O)c1	96.3%
Nc1ccc(C(=O)NCC(=O)O)cc1	95.7%
[H]/N=C(/N)N/C(=N/[H])NCCc1ccccc1	86.2%
CN(C)[C@@H]1C(O)=C(C(N)=O)C(=O)[C@@]2(O)C(O)=C3C(=O)c4c(O)ccc(Cl)c4[C@@](C)(O)[C@H]3C[C@@H]12	90.3%
COc1cc(OC)c2c(c1)OC(c1ccccc1)CC2=O (centres unmarked)	99.3%

Block 3
Compound: Cc1c(NC(=O)c2cc(C(N)=O)nc3cc(F)ccc23)c(C(F)(F)F)nn1Cc1ccc(C(C)(C)C)cc1
Read-out: cell-free assay
Technique: competition with immobilised ligand
Concentration: 1 µM
target	remaining binding [%]
Ribosomal protein S6 kinase alpha-5, N-terminal kinase domain (RPS6KA5, Homo sapiens, UniProt O75582)	100
ITK (Homo sapiens, UniProt Q08881)	95
EPHB4 (Homo sapiens, UniProt P54760)	100
MAP3K10 (Homo sapiens, UniProt Q02779)	78
STK25 (Homo sapiens, UniProt O00506)	100
MAPK15 (Homo sapiens, UniProt Q8TD08)	56
Tyrosine-protein kinase ABL1, non-phosphorylated (ABL1, Homo sapiens, UniProt P00519, Q252H)	84
TIE1 (Homo sapiens, UniProt P35590)	100
PIK3CA (Homo sapiens, UniProt P42336)	100
RET (Homo sapiens, UniProt P07949, V804L)	83
HUNK (Homo sapiens, UniProt P57058)	100
NUAK2 (Homo sapiens, UniProt Q9H093)	100
FYN (Homo sapiens, UniProt P06241)	100
MARK3 (Homo sapiens, UniProt P27448)	100
ERBB2 (Homo sapiens, UniProt P04626)	92
ACVR1 (Homo sapiens, UniProt Q04771)	100
GRK7 (Homo sapiens, UniProt Q8WTQ7)	100

Block 4
Host: mouse
Medium: microsomes or S9
Concentration: 2 µM
Time: 0.5 h
Compound	remaining compound
O=C(c1scc2c1OCCO2)N1CCCCCC1	17.9%
CCOc1cc(CNCCc2ccc(S(N)(=O)=O)cc2)ccc1OCc1ccccc1	54.2%
CC(NCc1cnc2cnccn12)c1ccc2c(c1)OCO2 (centres unmarked)	31.6%
Oc1c(-c2nc(-c3cccs3)no2)cnc2ccccc12	1.07%
CCN(CC)C1c2cccc3cccc(c23)C1NS(=O)(=O)c1ccccc1 (centres unmarked)	1.07%
Cc1[nH]c2cccc3c2c1CCN1C(=O)OC2(CC(C)(C)NC(C)(C)C2)C31C (centres unmarked)	77.4%
COc1c(O)cc2c(c1O)C(=O)c1c(cc(C)c(O)c1OC)C2=O	> 99%
